Results collected from several papers.
Compare with care: the assays were run in different laboratories. ± marks the error that the study gave.

| Molecule | assay | test system | conditions | how to read | quantity | result |
| --- | --- | --- | --- | --- | --- | --- |
| C[C@]12C=CC(=O)C=C1CC[C@@H]1[C@@H]2[C@@H](O)C[C@@]2(C)[C@H]1C[C@H]1O[C@@H](C3CCCCC3)O[C@]12C(=O)CO | – | children with asthma | inhaled, ciclesonide 80 µg with spacer vs 160 µg without, steady state, dose normalized | baseline: with spacer over without | AUC(tau) ratio | 126% |
| COc1cc(N)c(Cl)cc1C(=O)NC1CCN(CCCOc2ccc(F)cc2)CC1OC (stereo not shown) | – | male Hartley guinea pig, anaesthetized | intravenous infusion, 0.1 mg/kg, 10 min infusion | baseline: baseline | QTc change | 8.5 ± 3.6% |
| COC(=O)C[C@](O)(CCCC(C)(C)O)C(=O)O[C@@H]1C(OC)=C[C@]23CCCN2CCc2cc4c(cc2[C@H]13)OCO4 | – | CD1 mouse, brain | subcutaneous, 1 mg/kg, 24 h, below quantification limit 1.00 ng/mL | – | tissue concentration | not detected |
| CC[C@H](C)[C@H](NC(=O)[C@@H](NC(=O)[C@H](CS)NC(=O)[C@H](C)NC(=O)[C@H](CCCNC(=N)N)NC(=O)[C@H](CCCNC(=N)N)NC(=O)[C@H](CC(N)=O)NC(=O)[C@H](CCCNC(=N)N)NC(=O)[C@H](C)NC(=O)[C@H](CS)NC(=O)[C@H](CC(C)C)NC(=O)[C@@H](NC(=O)[C@@H](NC(=O)[C@H](CS)NC(=O)[C@H](CCCCN)NC(=O)[C@@H](N)CCCNC(=N)N)C(C)C)[C@@H](C)CC)C(C)C)C(=O)N[C@@H](CC(C)C)C(=O)N[C@@H](CS)C(=O)N[C@@H](CCCNC(=N)N)C(=O)O | LC/MS | PBS | 0.1 mg/mL | baseline: LC peak area | two-disulfide form | 74% |
| C=CC(=O)Nc1cc(Nc2nccc(-c3cn(C)c4ccccc34)n2)c(OC)cc1N(C)CCN(C)C | refers to: AEs possibly related to any treatment | EGFR-mutant MET-altered NSCLC patients | oral, dose not given, all | – | AEs leading to discontinuation | 11% |
| CC(C)NC[C@@H](C(=O)N1CCN(c2ncnc3c2[C@H](C)C[C@H]3O)CC1)c1ccc(Cl)cc1 | – | human, Moderate hepatic function, plasma | oral, 100 mg single dose, NCI classification, geometric mean | – | AUC(0-72 h) | 729 ng·h/mL |
| CCCC[C@@H]1NC(=O)[C@@H](NC(=O)[C@H](CCC(=O)O)NC(=O)CNC(=O)CN2CCN(CC(=O)O)CCN(CC(=O)O)CCN(CC(=O)O)CC2)CCCCNC(=O)C[C@@H](C(N)=O)NC(=O)[C@H](C(C)C)NC(=O)[C@@H]2CCCN2C(=O)[C@H](CCCNC(=N)N)NC(=O)CNC(=O)[C@H](Cc2c[nH]c3ccccc23)NC(=O)[C@H](CCCNC(=N)N)NC(=O)[C@@H](Cc2ccccc2)NC(=O)[C@H](Cc2c[nH]cn2)NC(=O)[C@H](CCC(=O)O)NC1=O [indium-111 labelled] | – | normal C57 mice, skin | intravenous, 0.037 MBq, 2 h | – | tissue uptake | 0.25 ± 0.17 %ID/g |
| CO[C@H]1C[C@@H]2CC[C@@H](C)[C@@](O)(O2)C(=O)C(=O)N2CCCC[C@H]2C(=O)O[C@H]([C@H](C)C[C@@H]2CC[C@@H](O)[C@H](OC)C2)CC(=O)[C@H](C)/C=C(\C)[C@@H](O)[C@@H](OC)C(=O)[C@H](C)C[C@H](C)/C=C/C=C/C=C/1C | LC-MS/MS | healthy dogs, whole blood | oral, 0.1 mg/kg single dose | – | AUC(0-48h) | 140 ± 23.9 ng·h/mL |
| Cc1c(Cl)cccc1Nc1ccccc1C(=O)O | shake-flask | Captex 355 | 37 °C | – | thermodynamic solubility | 7.24 ± 0.54 mg/g |
| CNCc1ccc(-c2[nH]c3cc(F)cc4c3c2CCNC4=O)cc1 | – | human patients, plasma | oral, 160 mg once daily, day 15, steady state, arithmetic mean | – | half-life | 33.6 h |
| CCCC[C@H](NC(C)=O)C(=O)N[C@H]1CCC(=O)NC[C@@H](C(=O)N[C@@H](Cc2c[nH]c3ccccc23)C(N)=O)NC(=O)[C@H](CCCNC(=N)N)NC(=O)[C@@H](Cc2ccccc2)NC(=O)[C@H](Cc2c[nH]cn2)NC1=O | – | Sprague Dawley rat, male, plasma | subcutaneous, 25.0 mg/kg daily, day 28 | – | AUC(0-t) | 12600 ng·h/mL |
| CCCCCCCCCCCCCCCCCCOP(=O)([O-])OC1CC[N+](C)(C)CC1 | – | rhesus monkey, male, cerebrospinal fluid | oral, 7 mg/kg, single dose, mean of 3 | – | AUC(0-inf) | 2450 ng·h/mL |
| FC(F)(F)Oc1ccc(Oc2ccnc(N3CCC(NC(=S)Nc4cccnc4)CC3)c2Cl)c(Cl)c1 | – | C57BL/6 mice, whole blood | i.p. or oral, 30 mg/kg, 4 h | – | blood concentration | 4 to 9 µM |
| CCCSc1ccc2nc(NC(=O)OC)[nH]c2c1 | shake-flask | Captex 355 | 37 °C | – | thermodynamic solubility | 0.39 ± 0.05 mg/g |
| CC(=O)O[C@@]12CO[C@@H]1C[C@H](O)[C@@]1(C)C(=O)[C@H](O)C3=C(C)[C@@H](OC(=O)[C@H](O)[C@@H](NC(=O)OC(C)(C)C)c4ccccc4)C[C@@](O)([C@@H](OC(=O)c4ccccc4)[C@H]21)C3(C)C | HPLC-MS/MS | rat liver homogenate | storage and freeze-thaw | – | stability | stable |
| C/C(=C\CC/C(C)=C/CC[C@]1(C)CCc2cc(O)cc(C)c2O1)CCC=C(CF)CF | – | heat-inactivated mouse liver microsomes | 1 µM, up to 10 min, 37 °C | – | stability | stable |
| COc1ccc2c(c1)c(CC(=O)O)c(C)n2C(=O)c1ccc(Cl)cc1 | shake-flask | Captex 355 | 37 °C | – | thermodynamic solubility | 4.8 ± 0.34 mg/g |
| acyl ghrelin (human) | – | Ghsr knockout mice, pons and medulla | intravenous, dose not given, 10 min, vascular space corrected | – | tissue/serum ratio | 6.8 µL/g |
| CC(C)[C@H](N)C(=O)OCC1(CO)C/C1=C/n1cnc2c(=O)[nH]c(N)nc21.Cl (mixture of isomers) | refers to: prodrug | Swiss-Webster mouse (male), plasma | intravenous, 24.6 mg/kg, one-compartment model | – | Vd | 93.5 L/kg |

For quick reference, copied from above:
| Molecule | assay | test system | conditions | how to read | quantity | result |
| --- | --- | --- | --- | --- | --- | --- |
| COc1cc(N)c(Cl)cc1C(=O)NC1CCN(CCCOc2ccc(F)cc2)CC1OC (stereo not shown) | – | male Hartley guinea pig, anaesthetized | intravenous infusion, 0.1 mg/kg, 10 min infusion | baseline: baseline | QTc change | 8.5 ± 3.6% |
| C/C(=C\CC/C(C)=C/CC[C@]1(C)CCc2cc(O)cc(C)c2O1)CCC=C(CF)CF | – | heat-inactivated mouse liver microsomes | 1 µM, up to 10 min, 37 °C | – | stability | stable |
